Experimental data of several laboratories.
Every numbered part comes from another study and shows a few of its results, in no order. Positions count from the first letter of the parent shown.

Sample 1 — method: DHFR PCA, deep sequencing; sample: yeast; added: (+)-ABA 0.032 µM; baseline: wild-type fitted maximum; reading: higher = stronger binding; measurement: relative binding score
Target: ABI1, truncated, D143A, DHFR fusion (Arabidopsis thaliana)
Notes: methotrexate growth selection, single substitutions
Starting sequence: PYL1, truncated, DHFR fusion (Arabidopsis thaliana); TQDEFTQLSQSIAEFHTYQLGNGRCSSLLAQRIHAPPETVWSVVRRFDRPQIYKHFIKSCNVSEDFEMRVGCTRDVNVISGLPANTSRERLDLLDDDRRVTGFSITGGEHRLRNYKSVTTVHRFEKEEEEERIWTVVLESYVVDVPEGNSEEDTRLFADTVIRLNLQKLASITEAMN
M68F: 4.9%
T154L: -4.86%
I57C: -1.87%
E127V: 31.4%
L166Q: 3.46%
I12C: 7.92%
N85F: 61.7%
N177G: 18.9%
E14W: -0.612%
F157V: 9.18%
A13P: -3.4%
Y18N: -0.623%
D65G: 19.9%
I162E: 3.21%
D144I: -4.09%

Sample 2 — method: RNA Bind-n-Seq; molecule type: RNA; sample: in vitro; tested at: not given; baseline: input RNA pool; reading: higher = stronger binding; measurement: bound/input enrichment
Target: RING finger protein unkempt homolog, zinc fingers 1-6, GST-SBP tag (UNK, Homo sapiens, UniProt Q9C0B0, residues 30-357)
UniProt Q9C0B0, sequence (30-357, looked up): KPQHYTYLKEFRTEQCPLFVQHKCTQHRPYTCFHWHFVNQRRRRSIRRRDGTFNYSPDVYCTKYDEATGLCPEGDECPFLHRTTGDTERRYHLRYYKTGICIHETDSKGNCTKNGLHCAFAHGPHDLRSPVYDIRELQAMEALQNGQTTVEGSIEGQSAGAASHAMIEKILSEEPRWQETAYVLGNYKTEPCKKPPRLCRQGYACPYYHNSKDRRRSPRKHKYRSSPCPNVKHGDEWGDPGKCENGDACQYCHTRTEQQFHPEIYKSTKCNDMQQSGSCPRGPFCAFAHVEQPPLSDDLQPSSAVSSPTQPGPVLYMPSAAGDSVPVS
Notes: RNA with constant flanks, human-mouse chimeric sites, ends assumed
All sequences stand within: GGGAGUUCUACAGUCCGACGAUC … CAACAGAGGAUUGAGCAUCA
GUUGCCAGCUUCCGGUUCCGUUGGGCUCGGUUCUCUCAGUGCUACGUUGUCUCUACGCUCUCAAUCCGCCAUCCAACAAACAUGGAUCAGGUAAUGCUGCAGUUUGUGCCCAGCCGGCAG: 0.339 ratio
GUAGCUGGGACUACAGAAAUGCUGGUAAUUUCAGUCAGUGAGUCGUGACUUCUGAUGUCCCAGCAAAUAAUGCCACAGUUGACUGCUGAGAAGAUACUUCUGAGGACCCACGUCUAAGGU: 0.0735 ratio
CGGAGCCCUCCUCUCCCACAGGCCCAAGAUGUGACCCACCAGUGCCUUUUGUCUUCCUGUCAGCUCUGUCAAUCACGCCUGUCCUCUGUCCCUCUCACCAAGUGCCCAAAGUGGGGAGGG: 0.429 ratio
CUGUGUGUGCUGAAUAAAUGGCUUGUAAAGAAGUUUUUCCAAGCUGUACCCAUGUACGUUAUUAUAGUUGCUGCAAAAUGUUCUUCCUAUUGAUGUUUUUAUUUGUUAACUGAAGGUCUC: 0.296 ratio
CACAGAGGCACCACCCCCCCCUCCUCCUUUCCACACCUGCAAACUCUUUUACUUGGGCUGAAUAUUUAGUGUAAUUACAUCUCAGCUUUUGAGGGCUCUGUGGCAAAUUCCCGGAUUAAA: 1.47 ratio
GUACUGCAGCAGCAGGGAAAACUGCAGGAAGCUCUGAUGCACUAUAAAGAAGCCAUACGAAUCAGUCCUACCUUUGCUGAUGCCUACUCUAAUAUGGGAAACACUCUAAAGGAGAUGCAG: 0.134 ratio

Sample 3 — target: CCNE2, cyclin fold, Cln2 fusion (human); method: yeast growth competition, sequencing; sample: yeast; notes: strong parent motif; baseline: not given; reading: higher = stronger binding; measurement: normalised enrichment score
Starting sequence: RBL1 docking peptide (human); GSAKRRLFGEDPP; partner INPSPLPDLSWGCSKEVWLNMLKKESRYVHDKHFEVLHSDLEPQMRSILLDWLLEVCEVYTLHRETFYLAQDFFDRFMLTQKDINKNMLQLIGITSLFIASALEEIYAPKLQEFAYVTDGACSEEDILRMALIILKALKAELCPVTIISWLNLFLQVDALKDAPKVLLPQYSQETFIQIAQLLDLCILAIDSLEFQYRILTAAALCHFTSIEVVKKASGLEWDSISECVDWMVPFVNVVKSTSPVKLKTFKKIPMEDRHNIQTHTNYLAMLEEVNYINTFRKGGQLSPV
R5N: 0.466
P13C: 4.11
R6M: 1.25
D11T: 4.26
G9R: 4.63
G1Q: 4.09
P12G: 3.89
R6C: 1.03
R5I: -0.0361
S2V: 3.01
R5T: 0.13
E10F: 3.39
F8A: 0.459
D11M: 3.63
R5P: 0.147
D11K: 2.74
A3N: -0.554
R5L: 0.0402
A3G: 0.867
E10I: 3.18
D11N: 3.88
R6N: 1.83
K4S: 1.18
D11S: 4.01
P12E: 5.09

Sample 4 — method: RNA Bind-n-Seq; molecule type: RNA; sample: in vitro; tested at: 365 nM; baseline: no-protein control; reading: higher = stronger binding; measurement: RBNS enrichment (R)
Target: RNA binding protein fox-1 homolog 2, RRM domain, GST-SBP tag (RBFOX2, Homo sapiens, UniProt O43251-10, residues 100-194)
Notes: natural RNA segment, single round, ends assumed
All sequences stand within: GGGAGUUCUACAGUCCGACGAUC … UGGAAUUCUCGGGUGCCAA
Residues (chain): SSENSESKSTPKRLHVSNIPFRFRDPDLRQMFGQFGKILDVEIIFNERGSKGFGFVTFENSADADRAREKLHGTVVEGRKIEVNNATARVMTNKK
GGGCACUAACACGUGUGCGUUCCUGGCGGGCACACUCAGGACCGUGCCUCACAGGGCCCACUCCCUGCCUAUGCCUCCCUCUUGGGGGGCCGAGGAGGGCGGCUGCUCUG: 0.148
CUUUUGCUUUAUCAGGAACACCAAAAUGAAUUCAGGAGUUUGACUCCCUUAAAAUCUGGUCUGCUUAAUUUCAAUUUUUGUAUCCAUUCUAAUGAUGCAACAUAGCACAG: 0.644
GGAAGGAAGUGGAUGCAGGGUGGAACAAAGAACCUCCGGUCACUGUAGCCCCUCUUCUCUGCUCUGCCCCUCCUUUCCUGUCCCCUCCUUUAGCCCCUUCCCCCAAGGAC: 0.75
UGCUAUGUGCAGGCAGGCAGGGGUUAUCUUCCUGGGUCUCACAGACUUUCAUGGUUUUCCUUACCCCUUCUUUUCUUUUUCUUCCUCAUUUUGUUCCUUCAUAGGAAAAA: 0.445
GGGAAUUUGCUCCUGUUCUGUCACUUGUCAUGGUCUUUCUUGGUAUUAAAGGCCACCAUUUGCACAAUGUUCCUGUUUUGGGUAACUUGGAUUAUUGUCAGAAUUGUUCU: 0.986
UUUGGAAACCCCUCUCCUCACCUCCCACCGUGACCUUGGGCAAACCCUGGCUCGGAGCCCAGGGCAGAGGCAGCUCAGAGUGGAGGCUCUAGGCAGGUUUGACAAAGGUC: 0.524
CCAGCCCUGCAGGGGCUGUACCCAGCUUGGCCUUAGCCCAUCUAAGUGCUGUCAACUGGUCUCCCACUGUCACUCCCACUCAUUUCAUUUGGACACAGGAAAUGUUGAUA: 0.391
CCCUCUGAUCCUGGACUCCCCAUGUCUAGUUCAGACCUAUUUCCUGUUCCCUUGAUAGCUUCGGGUCAUUGGUGGCAGCUCAUGUCCUCGGCGCUCCUUGUGUGGAGGCC: 0.776
UUUGUUCAUCUGGUCAUCGUGUCCAAAUUUCAGUCAUGUUUGUAGCAAGAUUUUGGAAGCAUUCAUAUUUCCUUUUUAAAAUGUAUUCCUUUGUGUUCAACAGUUAAUCA: 0.487
GGCUCUGGUUGGCUGAUCAAGGGCAUGGACCAGGGGCUGCUGGGCAUGUGUCCUGGAGAGAGAAGGAAGAUUAUCAUCCCUCCAUUCCUGGCCUAUGGCGAGAAAGGCUA: 1.3
AGUUGGUAGACUAGCCAAACAUCUGCUUGCUCUCACUUUGUUUUGGAAGAACCAUGGUAGCUUGUCAGCUGGUAGAAAGAUGGUUUGUAAAAACCAGUUUCUCACGGAGG: 1.46
AUAGAGAACCCGGGCUUGAGUGAGAAGAGCUUGCACAGCCAGUGAGACACAUUGCCUUCUGCAGCUGGGAGACAGAGGAAGGAUUCCCUUUCUUCACCAAGUGCAAUAGA: 0.393

Sample 5 — method: protein-binding microarray; molecule type: double-stranded DNA, one strand shown; sample: in vitro; tested at: 250 nM; notes: 60-bp whole probe; added: salmon DNA 0.4 mg/ml; baseline: random background probes; reading: higher = stronger binding; measurement: log fluorescence; all sequences stand within: GCCTAGCAC … GTCTTGATTCGCTTGACGCTGCTG
Target: Interferon regulatory factor 7, full length, phosphomimetic (IRF7, Homo sapiens, UniProt Q92985, residues 1-503, S101K/S471D/S472D/S475D/S476D/S477D/S483D/S484D/S487D)
Construct (chain): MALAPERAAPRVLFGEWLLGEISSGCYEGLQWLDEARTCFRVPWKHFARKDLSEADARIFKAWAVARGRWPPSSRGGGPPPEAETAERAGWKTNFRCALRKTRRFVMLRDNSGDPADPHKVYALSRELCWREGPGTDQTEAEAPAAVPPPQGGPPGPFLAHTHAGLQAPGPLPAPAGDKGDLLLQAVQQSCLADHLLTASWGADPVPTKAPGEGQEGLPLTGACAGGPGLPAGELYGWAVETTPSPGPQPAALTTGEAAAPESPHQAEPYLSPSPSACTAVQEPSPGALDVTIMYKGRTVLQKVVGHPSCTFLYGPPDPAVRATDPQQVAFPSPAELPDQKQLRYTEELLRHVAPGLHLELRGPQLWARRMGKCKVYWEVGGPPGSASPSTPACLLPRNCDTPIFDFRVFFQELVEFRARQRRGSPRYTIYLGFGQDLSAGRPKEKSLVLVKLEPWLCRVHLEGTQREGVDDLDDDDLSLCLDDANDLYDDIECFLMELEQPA
TTAGGACTGGACTTTCGGGTAGTGCTA: 0.0727 z-score
TCATGATTGGTTGAACAACTGTGCTAG: -0.378 z-score
CTATCTCTGTTTTTGCTTTCGTGCTAG: 2.22 z-score
GACGATATCACTATCGAGACGTGCTAG: 0.0255 z-score
TCAGGACTGGACTTTCGGTTAGTGCTA: 0.529 z-score
GACGGTATTGACTATCGGGACGTGCTA: -0.16 z-score
TCACCTCTAACTTTCCAACTGTGCTAG: 0.345 z-score
GATGAACTGAGTATCGAGACGTGCTAG: -0.201 z-score
GACAGTATCGGTCTCGGGACGTGCTAG: 0.857 z-score
GACGATATCGGGTATCGAGAAGTGCTA: -0.194 z-score
TCACCTTTCTCTCTGTGACTGTGCTAG: 1.12 z-score
GACGGTATCGACACTGGGGCCGTGCTA: -0.44 z-score
GACGGACTGGGATTGGGGACGTGCTAG: -0.452 z-score
TTAGATCTCAGTACCGATTAGTGCTAG: 0.293 z-score
TTAGGTCTCGGTATCGGTTGGTGCTAG: 3.55 z-score

Sample 6 — method: protein binding microarray; molecule type: double-stranded DNA, one strand shown; sample: in vitro; tested at: not given; baseline: not given; reading: higher = stronger binding; measurement: E-score
Target: Histone acetyltransferase KAT6A, winged helix 2, GST fusion (KAT6A, Homo sapiens, UniProt Q92794, residues 85-181)
Notes: 8-mer, flanks averaged, mean of 2 arrays, mostly near background
Target sequence (chain): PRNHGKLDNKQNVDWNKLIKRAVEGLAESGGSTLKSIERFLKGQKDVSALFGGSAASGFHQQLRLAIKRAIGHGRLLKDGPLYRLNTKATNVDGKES
CATCCGGA: 0.0808
AAGTCGAT: -0.154
CCCGTAAG: -0.0963
ATCGGCCG: -0.00245
GATTGAAA: -0.0838
ATGCCAGA: 0.0471
AAAGTTCA: -0.0312
ACCCGGGG: 0.111
GGCAATGA: -0.018
GTAGACCA: -0.143
CCTCCTCG: 0.0165
CAACGGTA: -0.266
AAAAAAAA: 0.23
CGCAACCA: 0.102
CGGCTACG: 0.0838
CATGGATA: -0.0215
CTTTGCTA: 0.124
CTGATGGC: -0.0377
AATCAATA: 0.125
AGTATTGA: -0.0575
TCCAAGGA: -0.0346
CCATACGA: -0.139
AGCCACAA: 0.215
GTTGGGTA: -0.0365
AATGCCAC: 0.0722

Excerpt of the above (sample 3):
F8A: 0.459
E10F: 3.39
R5I: -0.0361
D11N: 3.88
D11S: 4.01
G1Q: 4.09
R6C: 1.03
A3G: 0.867
E10I: 3.18
D11K: 2.74
R5N: 0.466
G9R: 4.63
R5L: 0.0402
